Assay results pooled from the literature.
Lines come from different studies, so protocols differ. ± gives the spread as reported.

The chains behind the UniProt entries cited, without tags or fusion partners. Residues count along the entry.
UniProt P41145, whole entry: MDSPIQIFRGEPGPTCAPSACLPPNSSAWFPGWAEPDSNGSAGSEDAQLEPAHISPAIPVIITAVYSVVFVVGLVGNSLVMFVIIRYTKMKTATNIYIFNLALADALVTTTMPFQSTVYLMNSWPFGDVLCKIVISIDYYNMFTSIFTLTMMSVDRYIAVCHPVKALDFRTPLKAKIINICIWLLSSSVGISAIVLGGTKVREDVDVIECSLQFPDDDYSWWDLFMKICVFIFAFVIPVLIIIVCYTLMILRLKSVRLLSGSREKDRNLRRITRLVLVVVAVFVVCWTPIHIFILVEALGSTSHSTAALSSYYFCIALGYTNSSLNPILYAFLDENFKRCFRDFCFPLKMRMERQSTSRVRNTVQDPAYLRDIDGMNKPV
UniProt P41146, whole entry: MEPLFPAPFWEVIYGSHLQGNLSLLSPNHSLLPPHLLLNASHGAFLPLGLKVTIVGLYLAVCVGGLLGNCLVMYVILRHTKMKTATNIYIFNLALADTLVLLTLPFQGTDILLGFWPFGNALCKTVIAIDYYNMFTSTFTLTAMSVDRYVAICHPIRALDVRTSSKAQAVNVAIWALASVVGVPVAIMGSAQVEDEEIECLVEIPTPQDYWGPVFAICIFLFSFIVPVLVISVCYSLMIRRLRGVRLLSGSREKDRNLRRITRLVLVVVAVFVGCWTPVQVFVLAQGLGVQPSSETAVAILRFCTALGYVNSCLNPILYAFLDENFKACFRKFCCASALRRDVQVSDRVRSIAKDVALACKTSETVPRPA
UniProt P49582, 23-502 limits assumed: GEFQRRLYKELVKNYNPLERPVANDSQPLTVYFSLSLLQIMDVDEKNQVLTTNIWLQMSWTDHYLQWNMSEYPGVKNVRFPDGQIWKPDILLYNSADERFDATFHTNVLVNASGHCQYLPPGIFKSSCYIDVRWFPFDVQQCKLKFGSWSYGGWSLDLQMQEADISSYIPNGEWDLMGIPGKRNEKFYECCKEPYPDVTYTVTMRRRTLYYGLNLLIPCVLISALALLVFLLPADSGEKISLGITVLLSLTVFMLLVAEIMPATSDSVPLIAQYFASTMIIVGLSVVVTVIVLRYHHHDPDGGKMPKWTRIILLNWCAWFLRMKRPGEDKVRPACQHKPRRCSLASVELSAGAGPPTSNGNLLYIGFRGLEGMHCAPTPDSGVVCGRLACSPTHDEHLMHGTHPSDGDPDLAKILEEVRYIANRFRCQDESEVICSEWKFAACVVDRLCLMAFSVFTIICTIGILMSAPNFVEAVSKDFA

| Molecule | tested on | assay | test system | conditions | how to read | endpoint | result |
| --- | --- | --- | --- | --- | --- | --- | --- |
| C[C@H](NP(=O)(Nc1ccn([C@H]2CS[C@@H](CO)O2)c(=O)n1)N[C@@H](C)C(=O)OCc1ccccc1)C(=O)OCc1ccccc1 | HeLa TK-deficient | cell proliferation | – | 3 d | – | IC50 | 256000 ± 21000 nM |
| AEOL 10150 | – | multiplex immunoassay | rat, status epilepticus, piriform cortex | sc, 7 mg/kg every 4 h, 24 h, from 5 min post-SE | – | IL-1β level | no effect |
| Nc1ccc([As]2SCCS2)cc1 | HCT-116 | cell viability, MTS | – | – | – | IC50 | 1860 ± 340 nM |
| Cc1cc(/C=C/C#N)cc(C)c1Oc1nc(NC2CCN(Cc3ccc(P(C)(C)=O)cc3)CC2)nc2ccsc12 | HIV-1 | – | MT-4, RES056 K103N/Y181C | – | relative to: CC50 over EC50 | selectivity index | 7400 |
| O=C1Cc2ccccc2N1C1CCN([C@H]2CC[C@@H]3CCCc4cccc2c43)CC1 (relative stereo) | Kappa-type opioid receptor (OPRK1, Homo sapiens, UniProt P41145) | radioligand displacement | – | together with: tritiated U-69593 | – | Ki | 516 ± 57.9 nM |
| C[C@H](NP(=O)(Nc1ccn([C@H]2CS[C@@H](COP(=O)(N[C@@H](C)C(=O)OCc3ccccc3)N[C@@H](C)C(=O)OCc3ccccc3)O2)c(=O)n1)N[C@@H](C)C(=O)OCc1ccccc1)C(=O)OCc1ccccc1 | CEM/TK− | cell proliferation | – | 72 h | – | IC50 | 155000 ± 38000 nM |
| 20-methyl spirolide G | nicotinic acetylcholine receptor (Torpedo marmorata) | binding | – | Pecten maximus extract 25 mg/mL, together with: biotin-α-bungarotoxin | – | IC50 | 23.8 ± 11.5 nM |
| CCC1C(=O)N(C2CCN(CCCc3ccccc3)CC2)c2ccccc21 (centres unmarked) | Nociceptin receptor (OPRL1, Homo sapiens, UniProt P41146) | radioligand displacement | – | together with: [3H]N/OFQ | – | Ki | 189 ± 43 nM |
| NC12CC3CC(CC(C3)C1)C2 | Influenza A virus | viral replication, plaque size reduction | MDCK, A/Swine/Iowa/11-0909/2010 (H1N1) | – | – | EC50 | < 1000 nM |
| gymnodimine A | nicotinic acetylcholine receptor (Torpedo marmorata) | binding | – | together with: biotin-α-bungarotoxin 80 nM | – | Ki | 19.2 ± 8.28 nM |
| CCCSc1nc(N[C@@H]2C[C@H]2c2ccc(F)c(F)c2)c2nnn([C@@H]3C[C@H](OCCO)[C@@H](O)[C@H]3O)c2n1 | – | – | STEMI patients, plasma | 180 mg loading dose, 12 h, together with: fentanyl | – | plasma concentration | 425 ± 424 ng/mL |
| 13-desmethyl spirolide C | nicotinic acetylcholine receptor (Torpedo marmorata) | binding | – | Pecten maximus extract 25 mg/mL, together with: biotin-α-bungarotoxin | – | IC50 | 7.14 ± 1.07 nM |
| C#CC(=O)Nc1ccc([As]2SCCS2)cc1 | NCM460 | cell viability, MTS | – | – | – | IC50 | 3200 ± 780 nM |
| O=S1(=O)c2ccc(F)cc2-c2ccc(N3CCN4CCC3CC4)cc21 [fluorine-18 labelled] | Neuronal acetylcholine receptor subunit alpha-7 (Chrna7, Mus musculus, UniProt P49582) | – | mouse, hippocampus | dose not given, 90 min, unit not given | relative to: cerebellum | binding potential BPND | 3.1 ± 0.7 |
